Assay results pooled from the literature.
Protocols differ between the studies behind these lines. “And” joins repeats or separate records; there may be more than shown. ± gives the spread as reported.
DRD3: D(3) dopamine receptor (DRD3, Homo sapiens, UniProt P35462)
Sequence of UniProt P35462 (whole entry, looked up): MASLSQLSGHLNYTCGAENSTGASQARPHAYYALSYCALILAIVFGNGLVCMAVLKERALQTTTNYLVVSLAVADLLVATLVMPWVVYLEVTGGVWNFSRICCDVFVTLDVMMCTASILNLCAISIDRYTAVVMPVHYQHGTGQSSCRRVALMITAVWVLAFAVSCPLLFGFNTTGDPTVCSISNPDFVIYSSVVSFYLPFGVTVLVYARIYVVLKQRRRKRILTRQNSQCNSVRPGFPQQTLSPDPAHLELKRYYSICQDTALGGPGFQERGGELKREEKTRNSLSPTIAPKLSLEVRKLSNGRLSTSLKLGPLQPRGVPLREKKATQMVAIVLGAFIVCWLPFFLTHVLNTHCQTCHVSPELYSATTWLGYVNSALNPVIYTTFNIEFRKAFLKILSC
pbpA: Penicillin-binding protein 1A (pbpA, Streptococcus pneumoniae, UniProt Q8DR59)
Sequence of UniProt A5GZW8 (whole entry, looked up): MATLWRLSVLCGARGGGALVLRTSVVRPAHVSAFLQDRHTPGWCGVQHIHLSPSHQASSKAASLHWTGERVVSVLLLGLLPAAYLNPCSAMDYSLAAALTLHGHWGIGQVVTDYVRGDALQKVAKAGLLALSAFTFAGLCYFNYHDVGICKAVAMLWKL
Sequence of UniProt Q007T0 (whole entry, looked up): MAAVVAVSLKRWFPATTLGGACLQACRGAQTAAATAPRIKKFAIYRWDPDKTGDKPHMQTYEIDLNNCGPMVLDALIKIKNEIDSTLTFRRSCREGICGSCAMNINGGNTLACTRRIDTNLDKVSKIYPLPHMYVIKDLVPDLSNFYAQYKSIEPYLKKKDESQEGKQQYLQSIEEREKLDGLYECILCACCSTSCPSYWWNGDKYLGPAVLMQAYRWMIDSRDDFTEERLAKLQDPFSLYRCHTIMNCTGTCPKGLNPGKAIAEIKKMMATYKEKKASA
Sequence of UniProt D0VWV4 (whole entry, looked up): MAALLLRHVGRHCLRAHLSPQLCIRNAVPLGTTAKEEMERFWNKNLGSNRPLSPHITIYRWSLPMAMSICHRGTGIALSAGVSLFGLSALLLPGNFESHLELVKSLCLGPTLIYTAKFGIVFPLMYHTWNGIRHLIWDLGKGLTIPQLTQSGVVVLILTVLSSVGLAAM
Sequence of UniProt P06276 (whole entry, looked up): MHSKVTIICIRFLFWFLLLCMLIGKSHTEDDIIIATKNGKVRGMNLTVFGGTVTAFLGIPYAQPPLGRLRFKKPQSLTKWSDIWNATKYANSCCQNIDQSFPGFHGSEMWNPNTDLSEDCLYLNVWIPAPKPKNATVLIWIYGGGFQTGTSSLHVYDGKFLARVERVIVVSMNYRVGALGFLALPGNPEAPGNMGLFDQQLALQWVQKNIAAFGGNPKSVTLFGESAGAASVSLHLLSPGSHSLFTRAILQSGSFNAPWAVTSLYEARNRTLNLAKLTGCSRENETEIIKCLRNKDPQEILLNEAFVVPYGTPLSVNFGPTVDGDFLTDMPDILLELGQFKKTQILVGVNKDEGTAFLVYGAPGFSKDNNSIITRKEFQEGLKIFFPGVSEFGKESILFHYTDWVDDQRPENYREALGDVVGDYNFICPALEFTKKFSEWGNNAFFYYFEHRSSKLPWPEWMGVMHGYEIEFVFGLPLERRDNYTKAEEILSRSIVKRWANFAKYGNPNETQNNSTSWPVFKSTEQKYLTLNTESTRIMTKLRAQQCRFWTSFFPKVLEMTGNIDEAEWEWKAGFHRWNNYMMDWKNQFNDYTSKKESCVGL
Sequence of UniProt Q62351 (whole entry, looked up): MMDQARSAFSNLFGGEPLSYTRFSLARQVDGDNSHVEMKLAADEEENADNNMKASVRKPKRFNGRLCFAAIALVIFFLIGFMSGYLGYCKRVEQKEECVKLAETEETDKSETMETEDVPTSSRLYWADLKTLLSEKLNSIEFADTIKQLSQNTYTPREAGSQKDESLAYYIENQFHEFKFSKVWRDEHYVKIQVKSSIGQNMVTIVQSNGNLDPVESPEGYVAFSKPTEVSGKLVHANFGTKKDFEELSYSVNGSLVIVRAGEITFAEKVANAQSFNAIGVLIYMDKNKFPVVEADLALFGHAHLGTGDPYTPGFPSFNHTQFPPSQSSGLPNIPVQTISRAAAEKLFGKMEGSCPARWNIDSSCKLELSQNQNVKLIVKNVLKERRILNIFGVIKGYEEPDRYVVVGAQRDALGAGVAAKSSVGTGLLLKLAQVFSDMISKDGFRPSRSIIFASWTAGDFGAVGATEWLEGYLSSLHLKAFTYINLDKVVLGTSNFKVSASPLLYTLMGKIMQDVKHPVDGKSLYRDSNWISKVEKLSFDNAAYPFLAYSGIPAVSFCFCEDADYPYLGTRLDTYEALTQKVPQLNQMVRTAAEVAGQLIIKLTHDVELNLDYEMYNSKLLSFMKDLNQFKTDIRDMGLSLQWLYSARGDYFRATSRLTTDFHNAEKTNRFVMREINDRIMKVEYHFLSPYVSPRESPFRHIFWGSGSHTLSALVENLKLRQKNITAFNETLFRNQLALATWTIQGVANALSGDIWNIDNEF
Sequence of UniProt P81908 (whole entry, looked up): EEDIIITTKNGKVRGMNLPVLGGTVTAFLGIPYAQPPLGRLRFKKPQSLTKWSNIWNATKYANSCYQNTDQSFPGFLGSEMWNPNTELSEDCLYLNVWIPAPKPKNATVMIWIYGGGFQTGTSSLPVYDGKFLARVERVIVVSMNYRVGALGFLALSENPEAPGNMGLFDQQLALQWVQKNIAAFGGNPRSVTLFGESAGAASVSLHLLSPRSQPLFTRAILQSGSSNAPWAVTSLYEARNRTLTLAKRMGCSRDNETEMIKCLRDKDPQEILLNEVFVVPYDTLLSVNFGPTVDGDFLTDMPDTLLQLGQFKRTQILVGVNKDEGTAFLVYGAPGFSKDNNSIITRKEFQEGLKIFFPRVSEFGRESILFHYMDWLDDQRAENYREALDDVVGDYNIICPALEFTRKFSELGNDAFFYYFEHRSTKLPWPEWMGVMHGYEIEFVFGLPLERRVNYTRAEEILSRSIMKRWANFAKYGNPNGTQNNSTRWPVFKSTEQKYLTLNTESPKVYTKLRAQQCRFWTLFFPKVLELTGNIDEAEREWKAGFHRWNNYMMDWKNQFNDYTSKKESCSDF
Sequence of UniProt P19784 (whole entry, looked up): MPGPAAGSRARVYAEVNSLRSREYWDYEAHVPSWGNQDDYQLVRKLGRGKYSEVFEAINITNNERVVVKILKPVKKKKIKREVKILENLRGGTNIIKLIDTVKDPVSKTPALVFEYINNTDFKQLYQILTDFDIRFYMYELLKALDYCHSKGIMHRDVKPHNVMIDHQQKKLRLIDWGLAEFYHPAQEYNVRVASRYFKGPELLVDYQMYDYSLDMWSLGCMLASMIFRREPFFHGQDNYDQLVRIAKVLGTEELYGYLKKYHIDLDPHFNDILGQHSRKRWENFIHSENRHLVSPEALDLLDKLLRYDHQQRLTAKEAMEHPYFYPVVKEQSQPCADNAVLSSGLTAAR
Sequence of UniProt Q9H7Z7 (whole entry, looked up): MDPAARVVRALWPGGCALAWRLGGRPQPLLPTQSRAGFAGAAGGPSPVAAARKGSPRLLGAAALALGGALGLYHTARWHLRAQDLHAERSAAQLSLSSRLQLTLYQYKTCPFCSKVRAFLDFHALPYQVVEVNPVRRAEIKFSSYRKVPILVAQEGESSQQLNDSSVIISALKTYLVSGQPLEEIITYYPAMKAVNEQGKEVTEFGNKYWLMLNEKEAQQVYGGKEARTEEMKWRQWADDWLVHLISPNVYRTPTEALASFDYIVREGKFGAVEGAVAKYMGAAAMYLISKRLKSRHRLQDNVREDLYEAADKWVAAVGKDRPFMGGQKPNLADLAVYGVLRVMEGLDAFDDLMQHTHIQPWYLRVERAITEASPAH
Sequence of UniProt O43570 (whole entry, looked up): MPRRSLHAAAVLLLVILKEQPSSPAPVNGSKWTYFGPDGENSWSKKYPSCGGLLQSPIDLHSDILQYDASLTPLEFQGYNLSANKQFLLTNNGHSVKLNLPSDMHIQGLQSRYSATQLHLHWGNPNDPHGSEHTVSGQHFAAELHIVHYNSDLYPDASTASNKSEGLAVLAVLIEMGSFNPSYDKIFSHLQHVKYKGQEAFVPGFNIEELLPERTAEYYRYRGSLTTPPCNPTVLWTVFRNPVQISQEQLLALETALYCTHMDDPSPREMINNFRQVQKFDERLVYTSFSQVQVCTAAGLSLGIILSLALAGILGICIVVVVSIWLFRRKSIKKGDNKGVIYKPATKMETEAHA
Sequence of UniProt Q14973 (whole entry, looked up): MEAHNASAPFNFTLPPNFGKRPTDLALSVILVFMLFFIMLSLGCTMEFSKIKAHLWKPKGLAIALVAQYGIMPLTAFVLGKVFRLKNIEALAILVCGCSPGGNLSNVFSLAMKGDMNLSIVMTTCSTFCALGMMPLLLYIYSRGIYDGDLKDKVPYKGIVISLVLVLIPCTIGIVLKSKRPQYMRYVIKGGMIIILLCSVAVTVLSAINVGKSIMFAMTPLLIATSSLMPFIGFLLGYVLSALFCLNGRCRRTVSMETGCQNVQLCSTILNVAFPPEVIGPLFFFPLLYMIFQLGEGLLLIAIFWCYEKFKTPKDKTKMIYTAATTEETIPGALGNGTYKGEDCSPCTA
Sequence of UniProt P42685 (whole entry, looked up): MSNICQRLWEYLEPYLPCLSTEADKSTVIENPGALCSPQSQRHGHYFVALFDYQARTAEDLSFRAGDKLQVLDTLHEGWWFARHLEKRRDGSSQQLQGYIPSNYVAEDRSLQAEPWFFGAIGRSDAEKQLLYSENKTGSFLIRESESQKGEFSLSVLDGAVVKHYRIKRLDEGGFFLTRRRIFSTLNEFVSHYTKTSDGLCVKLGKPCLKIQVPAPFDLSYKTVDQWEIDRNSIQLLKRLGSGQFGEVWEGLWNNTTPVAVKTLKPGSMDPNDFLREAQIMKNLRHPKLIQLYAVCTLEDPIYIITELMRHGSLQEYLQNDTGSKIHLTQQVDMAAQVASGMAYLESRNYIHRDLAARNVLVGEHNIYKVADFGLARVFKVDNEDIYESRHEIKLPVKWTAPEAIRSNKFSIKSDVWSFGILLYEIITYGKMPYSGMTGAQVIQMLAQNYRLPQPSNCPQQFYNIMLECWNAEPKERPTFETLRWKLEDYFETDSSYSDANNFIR

| Compound | target | test | system | conditions | scale | quantity | result |
| --- | --- | --- | --- | --- | --- | --- | --- |
| Cc1[nH]c(C)c(S(=O)(=O)Nc2ccc(S(F)(F)(F)(F)F)cc2)c1C(=O)N1CCC(F)(F)C1 | DRD3 | allosteric modulator, ternary complex model | – | together with: dopamine, [3H]methylspiperone | – | cooperativity factor α | 4.8 |
| Nc1ncnc2c1ncn2[C@@H]1O[C@H](COP(=O)(O)OP(=O)(O)NP(=O)(O)O)[C@@H](O)[C@H]1O | N-acetylmannosamine kinase (nanK, Haemophilus influenzae, UniProt Q4QP43, T131V) | binding | – | – | – | TΔS | 4.17 kcal/mol |
| Cc1c(Cl)c(=O)oc2cc(OCCCC[Se]C#N)ccc12 | CA12 (Homo sapiens, UniProt O43570) | stopped-flow CO2 hydration | – | – | relative to: Ki CA I over Ki CA XII | selectivity ratio | > 1400 |
| Oc1c(Br)cc(Br)cc1Oc1ccc(Br)cc1Br | SULT1B1 (Homo sapiens, UniProt O43704) | sulfonation, substrate | – | – | – | apparent Vmax | 11 nmol/min/mg protein |
| Oc1ccc(-c2cccc(Cl)c2)cc1Cl | Androgen receptor (AR, Homo sapiens, UniProt P10275) | reporter gene, antagonist | – | 24 h, together with: DHT 2 nM | – | IC25 | 1 µM |
| COc1cc2nccc(Oc3ccc(NC(=O)c4cc5c(n(-c6ccccc6)c4=O)CCCC5=O)nc3)c2cc1OC | FRK (Homo sapiens, UniProt P42685) | cell viability, CellTiter-Glo | Ba/F3 expressing recombinant kinase | – | relative to: FRK IC50 over AXL IC50 | selectivity ratio | > 100 |
| Nc1cnn(-c2ccccc2)c(=O)c1Cl | PPARG (Homo sapiens, UniProt P37231) | reporter gene, agonist, β-lactamase reporter | HEK293-H cells | nominal concentration | relative to: cytotoxicity IC10 over EC10 | specificity ratio | 36.1 |
| O=C(O)Cc1c[nH]cn1 | SLC6A6 (Homo sapiens, UniProt P31641, Y138A) | binding, microscale thermophoresis | – | 37.6 nM, fitted curve | higher = more binding | fraction bound | 0.000218 |
| CC(=O)N[C@@H](C)C(=O)N1CCC[C@H]1C(=O)N[C@@H](CC(C)C)C(=O)N[C@H](C(=O)N[C@@H](CCCNC(=N)N)C(=O)NCC(=O)N[C@@H](CO)C(=O)N[C@@H](CS)C(=O)N[C@@H](CCCNC(=N)N)C(=O)N[C@@H](CCCCN)C(=O)N[C@@H](CCCNC(=N)N)C(=O)N[C@@H](CC(N)=O)C(=O)N[C@@H](CCCNC(=N)N)C(=O)N[C@@H](CO)C(=O)N1CCC[C@H]1C(=O)N[C@@H](CCC(=O)O)C(=O)N[C@@H](CCCNC(=N)N)C(N)=O)[C@@H](C)O | WDR5 (Homo sapiens, UniProt P61964) | binding, competitor of LANA peptide, ITC | – | pH 7.0, 20 °C, WIN motif peptide | – | ΔG | -6.26 kcal/mol |
| Nc1ncnc2c1ncn2[C@@H]1O[C@H](COP(=O)(O)OP(=O)(O)NP(=O)(O)O)[C@@H](O)[C@H]1O | Cell cycle histidine kinase CckA, G318A; cytoplasmic region (Caulobacter vibrioides, UniProt Q9X688, G318A) | isothermal titration calorimetry | Caulobacter crescentus | concentration not given, 12 °C, together with: without c-di-GMP | – | binding enthalpy (ΔH) | -4.9 kcal/mol |
| CN(C(=O)n1cnc(-c2ccc[n+]([O-])c2)c1)C1CCCCC1 | HRH1 (Homo sapiens, UniProt P35367) | radioligand binding | – | 50 µM, together with: [3H]pyrilamine | – | inhibition | 11% |
| Oc1ccc(C(c2ccc(O)cc2)(C(F)(F)F)C(F)(F)F)cc1 | ATP2A1 (Oryctolagus cuniculus, UniProt P04191) | inhibitor | – | concentration not given | – | activity | inactive |
| COc1c(N2CC3CCCNC3C2)c(F)cc2c(=O)c(C(=O)OCc3cnc([N+](=O)[O-])s3)cn(C3CC3)c12.O=C(O)C(F)(F)F (centres unmarked) | nfsB (Escherichia coli K-12, UniProt P38489) | substrate | – | together with: NADH 100 µM | – | initial rate | 7.41 ± 0.98 µM/min |
| CC(C)[N+](C)(CCOC(=O)C1c2ccccc2Oc2ccccc21)C(C)C | Cholinesterase (BCHE, Homo sapiens, UniProt P06276) | – | – | concentration not given, Triton | – | efficacy | -71 ± 7.05% |
| [2H]c1c([2H])c([C@]2([2H])CCCN2C(=O)C(C)(C)Oc2ccc3cn[nH]c3c2)c([2H])c([2H])c1C([2H])([2H])[2H] | CSNK2A2 (Homo sapiens, UniProt P19784) | KINOMEscan | – | 1 µM | relative to: DMSO control | remaining binding | 93% |
| CC(=O)c1cnc2ccc(-c3cc(Cl)c(O)c(Cl)c3)nc2c1N[C@H]1CC[C@H](CN(C)C)CC1 | Receptor-like protein kinase ANXUR1 (ANX1, Arabidopsis thaliana, UniProt Q9SR05) | binding, SPR | – | concentration not given | relative to: FER | fold change of KD | > 100 |
| C=C(CN(C(=O)c1c(C(F)F)nn(C)c1F)C1CC1)c1ccc(Cl)cc1Cl | SDHD/SDHC/SDHB (Sus scrofa, UniProt A5GZW8+D0VWV4+Q007T0) | enzyme activity, inhibitor, DCIP reduction | pig | 0.06 µM, together with: DCIP 160 µM | – | reaction velocity | 0.0295 µM/s and 0.0309 µM/s and 0.0307 µM/s |
| Cc1c[nH]c2ncnc(N3CCC(CN)(C(=O)Nc4cccc(OC(=O)N(C)C)c4)CC3)c12 | Cholinesterase (BCHE, Homo sapiens, UniProt P06276) | – | – | concentration not given, Triton | – | efficacy | -97.5 ± 6.62% |
| COc1cc(N)c(Cl)cc1C(=O)NC1CN2CCC1CC2 (centres unmarked) | CMKLR2 (Homo sapiens, UniProt P46091) | β-arrestin recruitment, TANGO luminescence, measured: GPR1 | – | concentration not given | relative to: basal luminescence | log2 fold change | 0.154 |

| Compound | target | test | system | conditions | scale | quantity | result |
| --- | --- | --- | --- | --- | --- | --- | --- |
| Cc1cc(C)n2c1C=C1C=CC(CCC(=O)Nc3ccc(OCC(=O)N[C@@H]4C(=O)N5[C@@H]4SC(C)(C)[C@@H]5C(=O)[O-])cc3)=[N+]1[B-]2(F)F.[Na+] | pbpA | whole-cell time course | live Streptococcus pneumoniae cells | – | – | kinact/KI | 30200 ± 5800 M⁻¹ s⁻¹ |
| O=C(Nc1cnccc1Cl)N1CCN(Cc2ccc3c(c2)OC(F)(F)O3)CC1 | DRD3 | radioligand binding | – | 10 µM, together with: [3H]spiperone | – | inhibition of binding | 17% |
| C[C@H](CCC(=O)N[C@@H](CCC(=O)OC[C@H]1O[C@@H](n2cc(F)c(=O)[nH]c2=O)C[C@@H]1O)C(=O)O)[C@H]1CC[C@H]2[C@@H]3[C@H](O)C[C@@H]4C[C@H](O)CC[C@]4(C)[C@H]3CC[C@]12C | SLC10A1 (Homo sapiens, UniProt Q14973) | uptake, substrate | HEK293 expressing NTCP | – | relative to: taurocholate | normalised Vmax | 0.0185 |
| O=C(c1ccc(Cl)cc1)N1CCN2C(=O)N(OC(=O)N3CCOc4ccccc43)C(=O)C2C1 (centres unmarked) | Cholinesterase (BCHE, Homo sapiens, UniProt P06276) | enzyme activity, inhibitor, MS-based ABPP | SW-620 in situ | 10 µM, 2 h, 37 °C | relative to: compound over DMSO, lower = stronger inhibition | median ratio | 1.02 |
| CCCN(CCc1cccs1)[C@H]1CCc2c(O)cccc2C1 | Cholinesterase (BCHE, Homo sapiens, UniProt P06276) | – | – | concentration not given, Triton | – | efficacy | -94.3 ± 6.96% |
| COc1ccc(N2C(=O)N(c3c(C)cccc3Cl)Cc3cnc(Nc4ccc(C5CCN(C)CC5)cc4OC)nc32)nc1 | AKT2 (Homo sapiens, UniProt P31751) | kinase activity | – | 0.5 µM | – | inhibition | 2.75% |
| COc1ncccc1-c1cnn2ccc(N3CCN(C(=O)OC(C)C)CC3)nc12 | Tyrosine-protein kinase ABL1, phosphorylated (ABL1, Homo sapiens, UniProt P00519) | KINOMEscan | – | 1 µM | – | remaining binding | 100% |
| CC(=O)N[C@@H](CCC(N)=O)C(=O)N[C@@H](Cc1ccccc1)C(=O)N[C@@H](CCCNC(=N)N)C(=O)CN1CCCCC1 | TMPRSS2 (Homo sapiens, UniProt O15393) | enzyme activity, inhibitor | – | 1 nM, 1% DMSO | relative to: vehicle | remaining activity | 103% |
| CCN1CCN(C(=O)N[C@@H](C(=O)N[C@@H]2C(=O)N3[C@@H]2SC(C)(C)[C@@H]3C(=O)O)c2ccccc2)C(=O)C1=O | pbpA | inhibitor | – | – | – | kinact/KI | 1800 ± 190 M⁻¹ s⁻¹ |
| CCCCCCCC[C@H](NC(C)=O)C(=O)N[C@@H](CO)C(=O)N[C@@H](CC(C)C)C(=O)N[C@@H](CO)C(=O)N(C)[C@@H](CC(C)C)C(=O)N[C@@H](CC(=O)O)C(=O)N[C@@H](CCCCCCCC)C(=O)N[C@@H](CC(=O)O)C(N)=O | Glucagon receptor (GCGR, Homo sapiens, UniProt P47871) | CPM thermal shift | – | DDM/CHS detergent | – | melting temperature | 55.4 ± 1.6 °C |
| CN1CCN(c2cc(-c3ccncc3)c(-c3ccc4ccccc4c3)nn2)CC1 | DRD2 (Homo sapiens, UniProt P14416) | agonist, FLIPR | – | 12.5 µM | – | activation | -1.1% |
| COc1cc(/C=C/C(=O)NC2CCN(Cc3ccccc3)CC2)ccc1OC(=O)N(C)C | Cholinesterase (BCHE, Equus caballus, UniProt P81908) | Ellman | equine serum BuChE | – | relative to: AChE IC50 over BuChE IC50 | selectivity ratio | 0.5 |
| O=C(CN1CCN(Cc2ccc3c(c2)OCO3)CC1)N1c2ccccc2Sc2ccccc21 | Cholinesterase (BCHE, Homo sapiens, UniProt P06276) | – | – | concentration not given, Triton | – | efficacy | -91.9 ± 4.05% |
| CC[C@@H](C)[C@@H](NC(=O)[C@@H](Cc1ccc(O)cc1)NC(=O)[C@H]1CCCN1C(=O)[C@@H](CCCNC(=N)N)NC(=O)[C@H](N)Cc1c[nH]cn1)C(=O)N[C@H](C)C(=O)N[C@H](Cc1c[nH]cn1)C(=O)N[C@H](CCCNC(=N)N)C(=O)N[C@H](CCCCNC(=O)c1cccc(S(=O)(=O)F)c1)C(=O)N[C@H](Cc1ccc(O)cc1)C(=O)N[C@H](CO)C(=O)N[C@H](Cc1ccccc1)C(N)=O | Transferrin receptor protein 1 (Tfrc, Mus musculus, UniProt Q62351) | flow cytometry | MC-38 | 6 h, unit not given | relative to: 0 h | surface expression | 0.972 and 0.981 |
| CCN(CC)C(=O)Oc1ccc(/C=C/C(=O)NC2CCN(Cc3ccccc3)CC2)cc1 | Cholinesterase (BCHE, Equus caballus, UniProt P81908) | Ellman | equine serum BuChE | – | relative to: AChE IC50 over BuChE IC50 | selectivity ratio | 0.3 |
| Cc1cccc(C)c1OCC(=O)N[C@@H](Cc1ccccc1)[C@H](O)C(=O)N1CSC(C)(C)[C@H]1C(=O)N[C@H]1c2ccccc2C[C@H]1O | Gag-Pol polyprotein, protease (gag-pol, Human immunodeficiency virus type 1 group M subtype B, UniProt P04585) | GdnHCl denaturation, Trp fluorescence | HIV-1 | 2.5 µM, pH 5.0 | – | binding free energy | -13.9 kcal/mol |
| O=C(Nc1cccnn1)N1CCC(=Cc2cccc(Oc3ccc(C(F)(F)F)cn3)c2)CC1 | GABAA receptor chloride channel, rat | binding | – | 10 µM, together with: [3H]TBOB | – | inhibition | 46% |
| COc1cc(Nc2ncc(F)c(Nc3ccc4c(n3)NC(=O)C(C)(C)O4)n2)cc(OC)c1OC | RPS6KA1 (Homo sapiens, UniProt Q15418) | KINOMEscan | – | 10 µM, RSK1(Kin.Dom.1-N-terminal) | – | inhibition | 97% |
| C[C@H]1CN(c2n[nH]c3nc(N[C@H]4CC[C@H](NS(=O)(=O)CCC(F)(F)F)CC4)ncc23)CCO1 | Prostaglandin E synthase 2 (Homo sapiens, UniProt Q9H7Z7) | Kinobeads competition, measured: PTGES2 | – | 0.16 µM, unit not given | relative to: vehicle | remaining binding | 1.46 |

For quick reference, copied from above:
| Compound | target | test | system | conditions | scale | quantity | result |
| --- | --- | --- | --- | --- | --- | --- | --- |
| Oc1ccc(C(c2ccc(O)cc2)(C(F)(F)F)C(F)(F)F)cc1 | ATP2A1 (Oryctolagus cuniculus, UniProt P04191) | inhibitor | – | concentration not given | – | activity | inactive |
| CCCCCCCC[C@H](NC(C)=O)C(=O)N[C@@H](CO)C(=O)N[C@@H](CC(C)C)C(=O)N[C@@H](CO)C(=O)N(C)[C@@H](CC(C)C)C(=O)N[C@@H](CC(=O)O)C(=O)N[C@@H](CCCCCCCC)C(=O)N[C@@H](CC(=O)O)C(N)=O | Glucagon receptor (GCGR, Homo sapiens, UniProt P47871) | CPM thermal shift | – | DDM/CHS detergent | – | melting temperature | 55.4 ± 1.6 °C |
| CC(C)[N+](C)(CCOC(=O)C1c2ccccc2Oc2ccccc21)C(C)C | Cholinesterase (BCHE, Homo sapiens, UniProt P06276) | – | – | concentration not given, Triton | – | efficacy | -71 ± 7.05% |
| COc1ncccc1-c1cnn2ccc(N3CCN(C(=O)OC(C)C)CC3)nc12 | Tyrosine-protein kinase ABL1, phosphorylated (ABL1, Homo sapiens, UniProt P00519) | KINOMEscan | – | 1 µM | – | remaining binding | 100% |
| Cc1c[nH]c2ncnc(N3CCC(CN)(C(=O)Nc4cccc(OC(=O)N(C)C)c4)CC3)c12 | Cholinesterase (BCHE, Homo sapiens, UniProt P06276) | – | – | concentration not given, Triton | – | efficacy | -97.5 ± 6.62% |
